Published values collected from several papers.
Values joined by “and” are separate records of one study, mostly repeats; a detail may differ. ± marks the error that the study gave.
FN1 mature: FN1 mature (Bos taurus, UniProt P07589)
UniProt P07589, sequence (whole entry, looked up): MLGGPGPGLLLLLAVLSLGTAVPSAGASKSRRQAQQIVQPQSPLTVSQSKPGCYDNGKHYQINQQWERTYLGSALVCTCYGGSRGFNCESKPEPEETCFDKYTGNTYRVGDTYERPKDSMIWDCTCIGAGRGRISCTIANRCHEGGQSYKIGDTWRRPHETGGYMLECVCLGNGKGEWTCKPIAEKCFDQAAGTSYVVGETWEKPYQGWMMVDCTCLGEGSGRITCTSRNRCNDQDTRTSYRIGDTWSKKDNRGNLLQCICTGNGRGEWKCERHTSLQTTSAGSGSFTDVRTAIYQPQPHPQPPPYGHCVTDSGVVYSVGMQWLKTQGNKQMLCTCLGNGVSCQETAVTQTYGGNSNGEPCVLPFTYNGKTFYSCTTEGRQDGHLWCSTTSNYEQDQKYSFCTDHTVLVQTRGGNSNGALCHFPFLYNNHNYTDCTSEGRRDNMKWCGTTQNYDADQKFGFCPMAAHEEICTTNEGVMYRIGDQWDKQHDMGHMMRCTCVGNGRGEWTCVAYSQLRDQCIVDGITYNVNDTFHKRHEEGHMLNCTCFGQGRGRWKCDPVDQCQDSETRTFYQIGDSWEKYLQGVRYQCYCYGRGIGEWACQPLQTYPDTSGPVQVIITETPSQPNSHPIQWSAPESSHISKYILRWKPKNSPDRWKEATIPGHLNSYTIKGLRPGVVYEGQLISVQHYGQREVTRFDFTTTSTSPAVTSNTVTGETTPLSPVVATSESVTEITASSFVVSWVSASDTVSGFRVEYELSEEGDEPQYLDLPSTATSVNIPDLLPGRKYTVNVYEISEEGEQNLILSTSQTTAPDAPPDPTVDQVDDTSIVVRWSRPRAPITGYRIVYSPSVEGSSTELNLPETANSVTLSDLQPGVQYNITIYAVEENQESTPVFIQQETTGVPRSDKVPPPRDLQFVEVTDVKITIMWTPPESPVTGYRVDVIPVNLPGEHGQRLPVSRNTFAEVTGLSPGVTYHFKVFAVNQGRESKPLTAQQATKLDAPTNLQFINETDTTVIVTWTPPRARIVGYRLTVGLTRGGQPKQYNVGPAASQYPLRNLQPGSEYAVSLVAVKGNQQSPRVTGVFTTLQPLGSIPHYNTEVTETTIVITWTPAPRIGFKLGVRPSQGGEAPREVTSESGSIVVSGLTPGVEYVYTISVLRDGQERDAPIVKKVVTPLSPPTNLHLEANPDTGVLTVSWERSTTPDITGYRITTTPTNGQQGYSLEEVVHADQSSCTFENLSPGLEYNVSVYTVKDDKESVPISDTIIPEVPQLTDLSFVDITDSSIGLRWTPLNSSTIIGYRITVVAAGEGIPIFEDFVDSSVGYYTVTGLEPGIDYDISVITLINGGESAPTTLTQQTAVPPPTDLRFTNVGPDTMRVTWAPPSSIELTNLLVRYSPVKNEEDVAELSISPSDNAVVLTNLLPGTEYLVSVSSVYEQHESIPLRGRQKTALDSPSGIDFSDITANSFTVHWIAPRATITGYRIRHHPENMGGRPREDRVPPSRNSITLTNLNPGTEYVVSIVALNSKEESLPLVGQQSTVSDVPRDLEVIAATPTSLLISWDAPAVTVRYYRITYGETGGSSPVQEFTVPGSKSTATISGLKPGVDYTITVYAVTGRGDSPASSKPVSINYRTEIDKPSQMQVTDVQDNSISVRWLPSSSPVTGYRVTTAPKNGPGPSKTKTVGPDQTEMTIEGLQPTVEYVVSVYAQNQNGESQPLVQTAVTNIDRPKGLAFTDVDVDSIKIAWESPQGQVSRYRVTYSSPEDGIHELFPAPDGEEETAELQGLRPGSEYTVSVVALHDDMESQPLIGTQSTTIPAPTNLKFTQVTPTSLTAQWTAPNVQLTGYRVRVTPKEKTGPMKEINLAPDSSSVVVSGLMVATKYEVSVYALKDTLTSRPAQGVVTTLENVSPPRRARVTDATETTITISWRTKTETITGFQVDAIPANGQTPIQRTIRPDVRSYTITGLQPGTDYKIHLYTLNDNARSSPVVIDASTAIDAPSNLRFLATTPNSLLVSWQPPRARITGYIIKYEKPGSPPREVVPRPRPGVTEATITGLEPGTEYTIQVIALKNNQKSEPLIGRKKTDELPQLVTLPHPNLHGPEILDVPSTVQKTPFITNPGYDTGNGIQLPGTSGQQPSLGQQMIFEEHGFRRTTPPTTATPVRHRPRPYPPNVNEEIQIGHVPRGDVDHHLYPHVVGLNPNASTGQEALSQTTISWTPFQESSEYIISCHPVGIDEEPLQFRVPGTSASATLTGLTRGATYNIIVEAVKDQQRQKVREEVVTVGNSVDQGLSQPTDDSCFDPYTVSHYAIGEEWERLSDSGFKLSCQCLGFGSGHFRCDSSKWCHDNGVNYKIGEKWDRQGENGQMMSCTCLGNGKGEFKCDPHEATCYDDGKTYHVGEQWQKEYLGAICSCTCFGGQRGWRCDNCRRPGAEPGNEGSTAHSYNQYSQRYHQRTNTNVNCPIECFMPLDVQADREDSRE
B1: bbk32 108-205 (Borrelia burgdorferi, UniProt O50835); chain LKEQSETRKEKIQKQQDEYKGMTQGSLNSLSGESGELEEPIESNEIDLTIDSDLRPKSSLQGIAGSNSISYTDEIEEEDYDQYYLDEYDEEDEEEIRL
B2: bbk32 21-354 (Borrelia burgdorferi, UniProt O50835); chain DLFIRYEMKEESPGLFDKGNSILETSEESIKKPMNKKGKGKIARKKGKSKVSRKEPYIHSLKRDSANKSNFLQKNVILEEESLKTELLKEQSETRKEKIQKQQDEYKGMTQGSLNSLSGESGELEEPIESNEIDLTIDSDLRPKSSLQGIAGSNSISYTDEIEEEDYDQYYLDEYDEEDEEEIRLSNRYQSYLEGVKYNVDSAIQTITKIYNTYTLFSTKLTQMYSTRLDNFAKAKAKEEAAKFTKEDLEKNFKTLLNYIQVSVKTAANFVYINDTHAKRKLENIEAEIKTLIAKIKEQSNLYEAYKAIVTSILLMRDSLKEVQGIIDKNGVWY
UniProt Q182S9, sequence (whole entry, looked up): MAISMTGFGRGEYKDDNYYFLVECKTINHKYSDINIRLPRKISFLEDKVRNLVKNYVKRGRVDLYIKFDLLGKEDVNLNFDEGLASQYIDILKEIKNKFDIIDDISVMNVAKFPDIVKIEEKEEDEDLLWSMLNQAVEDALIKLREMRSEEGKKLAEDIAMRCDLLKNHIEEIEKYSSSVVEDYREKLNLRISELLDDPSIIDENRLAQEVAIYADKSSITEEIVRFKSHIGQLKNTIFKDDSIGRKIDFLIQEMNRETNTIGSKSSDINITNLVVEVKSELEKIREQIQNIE

For `GGUGUAAAUUGUCCUUUUUGUAACUUUAAUUCCUUGUACUUAAUAUCAUUUAUUGAAUUUACUGCUCUAGAUAAAGUACCUACUUCUCUUAAUAUAUUACUAUCUAAAGUCUUAAUCAAACACACCUCCACUGAAACUACCAUGGCUAAAGUCAAAUAGUUUCUGUUUUAUAGAAUUUCACAUAAUCAAUAUUUUCAUUUUUAGUUGAAAGUUCAACUUUUUUAAAUUUUACCAU (structured RNA)`, binding read “binds” (YicC 1-151 (Clostridioides difficile, UniProt Q182S9); EMSA).
The IC50 of `COc1ncncc1-c1cn([C@@H]2O[C@](F)(COC(=O)C(C)C)[C@@H](OC(=O)C(C)C)[C@H]2OC(=O)C(C)C)cn1` is reported as 21.3 µM (Zaire ebolavirus; viral replication, reporter virus; Huh-7; 72 h).
With `Oc1ccc(CN2CCN(Cc3ccc(Br)s3)CC2)c2cccnc12` the inhibition was 53% (MERS-CoV spike VSV pseudovirus; pseudovirus entry; 10 µM).
For `CC(C)[C@H]1C(=O)O[C@H](C(C)C)C(=O)N(C)[C@@H](C(C)C)C(=O)O[C@H](C(C)C)C(=O)N(C)[C@@H](C(C)C)C(=O)O[C@H](C(C)C)C(=O)N1C`, the tissue concentration was 0.12 ± 0.03 µg/kg (LC-MS/MS; CB-17 scid/scid mice, muscle; intraperitoneal, 5 mg/kg, 24 h after last dose, daily dosing).
With `B1 (bbk32 108-205)` the Kd was 14.6 nM (FN1 mature; ELISA).
The infection of `COc1cc2ncnc(Nc3cccc(Cl)c3)c2cc1OC` is reported as 0.63% and 0.37% and 0.14% (Monkeypox virus; viral infection; replication-deficient; 100 µM; reference: untreated).
With `COc1ncc(-c2cn([C@@H]3O[C@](F)(COC(=O)C(C)C)[C@@H](OC(=O)C(C)C)[C@H]3OC(=O)C(C)C)cn2)c(N)n1` the IC50 was 85.3 µM (Zaire ebolavirus; viral replication, reporter virus; Huh-7; 72 h).
For `B2 (bbk32 21-354)`, the Kd was 16.2 nM (FN1 mature; ELISA).
With `O=c1ccn([C@@H]2O[C@](F)(CO)[C@@H](O)[C@H]2O)c(=O)[nH]1` the EC50 was 4.4 µM (Mammarenavirus lassaense; viral replication; HeLa, clade II).

Repeated from above:
With `O=c1ccn([C@@H]2O[C@](F)(CO)[C@@H](O)[C@H]2O)c(=O)[nH]1` the EC50 was 4.4 µM (Mammarenavirus lassaense; viral replication; HeLa, clade II).
